Published values from different studies.
Each numbered part is a random draw from the data of one study; scales do not carry over between parts. Changes are numbered by the printed parent chain.
Sequence of UniProt P61077 (whole entry, looked up): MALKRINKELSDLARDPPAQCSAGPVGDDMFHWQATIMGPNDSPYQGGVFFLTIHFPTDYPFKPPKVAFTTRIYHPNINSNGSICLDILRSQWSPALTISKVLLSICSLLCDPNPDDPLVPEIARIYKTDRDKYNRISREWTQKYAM

Study 1
Target: ABI1, truncated, D143A, DHFR fusion (Arabidopsis thaliana)
Method: DHFR PCA, deep sequencing
Matrix: yeast
Setting: methotrexate growth selection, single substitutions
Added: (+)-ABA 2500 µM
Reference: wild-type fitted maximum
Reading: higher = stronger binding
Starting sequence: PYL1, truncated, DHFR fusion (Arabidopsis thaliana); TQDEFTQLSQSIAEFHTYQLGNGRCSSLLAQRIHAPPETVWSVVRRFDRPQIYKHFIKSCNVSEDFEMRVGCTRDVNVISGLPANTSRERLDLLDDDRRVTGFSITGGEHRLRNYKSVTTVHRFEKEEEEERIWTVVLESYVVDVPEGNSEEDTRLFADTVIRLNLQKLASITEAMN
| Change | relative binding score |
| --- | --- |
| E4D | 96.3% |
| F157K | 0.884% |
| N77Q | 98.1% |
| R132I | 109% |
| H110V | 59.1% |
| S117R | 8.71% |
| W41C | 14.1% |
| A170P | 13.3% |
| G108L | 60.5% |
| R90I | 86.3% |
| N77W | 94.7% |
| R111A | 83% |
| E125H | 98.9% |
| Q167L | 92.9% |
| Q10K | 110% |

Study 2
Target: RNA binding protein fox-1 homolog 2, RRM domain, GST-SBP tag (RBFOX2, Homo sapiens, UniProt O43251-10, residues 100-194)
Method: RNA Bind-n-Seq
Molecule type: RNA
Matrix: in vitro
Tested at: 365 nM
Setting: natural RNA segment, single round, ends assumed
Reference: no-protein control
Reading: higher = stronger binding
Constant ends, left off below: GGGAGUUCUACAGUCCGACGAUC … UGGAAUUCUCGGGUGCCAA
Residues (chain): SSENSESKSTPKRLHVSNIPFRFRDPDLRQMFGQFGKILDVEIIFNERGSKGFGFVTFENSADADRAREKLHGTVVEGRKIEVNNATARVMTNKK
| Oligonucleotide | RBNS enrichment (R) |
| --- | --- |
| AUUUUCUAUUCCUAACAGCUUCCCGUGGGAAAAGUAAGCUGUUGAUCUCUUUGGCAAUUGUUCUCUGCCAGAGUCUUAAGUAUGUGUCUUUGAUACUCCUUGAAAAUUAA | 1.2 |
| CGCCUGACAUUUUACGGGAUCAAAGUGGGUCUGUGGCAUUGCUGCUUCGUGAAUGUGUGUGGACUCUAGUUUCCGCAAAACAACGCAACACAAAACCAAGCAAGCAAAAC | 0.3 |
| UCCAAAAGUCCCCACUAGUUGGUGUACCUGUCUAUUUCUCUGGAUACUGCUAGCCAAAGGGCUCGGGCCCCCCCCUGGACUGACCUGCCCAUGUAAUUUUCCCACUGCCA | 0.576 |
| GGUGGGAAAUGGUCUCCUUCCUCAGCGUUGUGUUUGGGUUACUGGUGAGGCCAGCUCACAGAGUGACAUCAUGGUCACCAGUACAUGUCGCUGGAGUAAAAUCUUGCCUU | 0.507 |
| ACAGGCGUUUCUGACCUGCUGGGCCGAGAAUGGGUAAGUUGUCUGGAGUCAGGUGGGCCCACGUAGGACAGGGUCACAAAGCCUGGGUUUGUUUCUGGGUACUUUGCGCC | 1.05 |
| ACCUUUUUGUUAAAUAAAAUUUGUACUCAAAUGAUGAUGUCACUGUUUUUAAUGUGCAGGUAUUGAAUUAUAUGGUCUGACUUAAAUCAUAACUAGACUUGAGUGGGCUG | 0.453 |
| UAGAAGGGGAUCCUAACAGGGACUUCUGGAGCAGACAGAGCCUGCCAGUGCCUGUGGAGUCAGCCAGCCGAGGGUCUGCCUCCUCAGCUGCCCCAGGGGGGCCUCCCUCC | 0.798 |
| CUCUGCGCUGAAGGUGCUGGGGUCAGGUGAAGGGAGCAGUGACAGGACACAGCACAGGUGCUGCUGGCUCUGGGGACGAGAUGGAGGUGCUGGAGGUAGUGUGUGGGGAG | 1.03 |
| UGCCAAAAUUCAUUUUUCUAACUCUGUGUGUUAGGAAAUAAUGAAAAAUAAAAUAAUUUAAAAUAAACAUUGUGCCUCUCUGUCUUAUUGGUGUUUCUUUAGAACUGAAU | 0.861 |
| UAUGAACUGUACUGGCUGUUGACCACCAGACACCUGACCGCAAAUAUCUUUUCUUGUAUUCCCAUAUUUCUAGACAAUGAUUUUUGUAAGACAAUAAAUUUAUUCAUUAU | 0.228 |
| AUUGCCAGUGUCUUUCUUUGGUGCCUUUCCUGUUCAGCAUUCUUAGCCUGUGGCAGUAAAGAGAAACUUUGUGCUACAUGACGACAAAGCUGCUAAAUCUCCUAUUUUUU | 1.28 |
| UGCUACAUCCCUACCCCAAGGGGCUUGGUCAAGGUGCCUGUUCCUGGCUCUCUGGCUGCAUGUGAUAAGCCAUGCUCCCCUCCCCUGCCUUUCUUCACAUUCCCACUCCC | 7.8 |

Study 3
Target: Fragile X messenger ribonucleoprotein 1, C-terminal low-complexity region (Fmr1, Mus musculus, UniProt P35922)
Method: RNA Bind-n-Seq
Molecule type: RNA
Matrix: in vitro
Tested at: 200 nM
Setting: whole 134-nt RNA, ends assumed
Added: 150 mM LiCl
Reference: input library
Reading: higher = stronger binding
Library: 7-deaza-guanosine replaces G
Constant ends, left off below: GGGAGUUCUACAGUCCGACGAUC … UGGAAUUCUCGGGUGUCAAGG
| Oligonucleotide | log2 enrichment |
| --- | --- |
| UGGCCCUGGUGGCAUGCGGGGAGGAAGAGGUGGCCUCAUCGAUCGUGGUGGUCCCGGUGGAAUGUUCAGAGGUGGCCGUGGUGGAGACAG | 0.0569 |
| AGUCCUGUGCUACACAUCGUAUGUACCGAAUCGGGUUUUUGGGAAAAAGGGAAAGGGAAAGUAUUAUGUUACGCCGUUCGGAUCUGCACU | -1.94 |
| AGUCCUGUGCUACACAUCGUAUGUACCGAAUCGGGAAAAAAAGGGUUUUUGGGUGGGAAAGUAUUAUGUUACGCCGUUCGGAUCUGCACU | -2.2 |
| CUCAAGUCCUGUGCUACACAUCGUAUGUACCGAAUCGGCCGGGCCGGGGCCGGAAAGUAUUAUGUUACGCCGUUCGGAUCUGCACUUCCA | 0.684 |
| CCUCAAGUCCUGUGCUACACAUCGUAUGUACCGAAUCGGGGUGGUGGGGUGGGAAAGUAUUAUGUUACGCCGUUCGGAUCUGCACUUCCA | -1.05 |
| CACAGACAACACGCACCCACACAGACACAGAUGGAAGGGGUUGGGAUGGGGACAGGGUGCACAGCAGGGCGGGGUAGGACCCCAGCCCCU | 0.466 |
| UGCUUGUGUUUCUGACAGAUUCACUGCCUUCUGAGGACUUGGAUCCUGCCGAUCCCCCGAUCUCGGUAACUGUUGGCCUGAUCUGGCUGU | 0.602 |
| UGGCCCUGUUGGCAUGCGGGGAGGAAGAGGUGGCCUCAUGGAUCGUGGUGGUCCCGGUGGAAUGUUCAGAGGUGGCCGUGGUGGAGACAG | 0.268 |
| GUCCUGUGCUACACAUCGUAUGUACCGAAUCGGGGAGGGGUUUUUGGGGUUUUUGGGGAAAGUAUUAUGUUACGCCGUUCGGAUCUGCAC | 0.241 |
| UCUGAGCAAUUGAAUGCCCUAAACAAGGCUUACCAUGACCUUUGUGAUGGUUCUGCAAAUCAGCUUCAGCAGCUUCAGAGCCAGUUGGCU | -3.34 |
| UGUGCUACACAUCGUAUGUACCGAAUCGGGGAAAAAAAGGGGAAAAAAAGGGGAAAAAGGGGAAAGUAUUAUGUUACGCCGUUCGGAUCU | 1.01 |

Study 4
Target: CCNB1, cyclin fold, Cln2 fusion (human)
Method: yeast growth competition, sequencing
Matrix: yeast
Setting: strong parent motif
Reference: not given
Reading: higher = stronger binding
Starting sequence: INSM1 docking peptide (human); PKAIRKLHFEDEV
| Change | normalised enrichment score |
| --- | --- |
| E10A | 1.31 |
| E12H | 1.37 |
| H8S | 2.97 |
| K2A | 2.85 |
| L7M | 0.409 |
| H8Y | 3.15 |
| I4L | 0.463 |
| F9K | -0.179 |
| K6N | 0.7 |
| F9N | 0.0387 |
| K6V | 0.96 |
| K6R | 2.12 |
| H8L | 2.93 |
| A3D | 0.0138 |
| A3I | 4.48 |
| H8C | 3.18 |
| F9Y | 0.964 |
| E10N | 1.44 |
| K2P | 3.08 |

Further values, each from its own experiment
B1: RNF25 RING domain (UniProt Q96BH1); chain LTDNNIPHGQCVICLYGFQEKEAFTKTPCYHYFHCHCLARYIQHMEQELKAQGQEQEQERQHATTKQKAVGVQCPVCREPLVYDLASL
| Molecule | target | assay | system | conditions | how to read | endpoint | value |
| --- | --- | --- | --- | --- | --- | --- | --- |
| B1 (RNF25 RING domain) | UBE2D3 UBC core domain (UniProt P61077) | yeast two-hybrid | yeast | mostly zero background | reference: not given, higher = stronger interaction | lacZ reporter activity | 7720 |

Some of these lines once more (study 4):
| Change | normalised enrichment score |
| --- | --- |
| E12H | 1.37 |
| H8S | 2.97 |
| K2A | 2.85 |
| L7M | 0.409 |
| H8Y | 3.15 |
| I4L | 0.463 |
| F9K | -0.179 |
